Assay results pooled from the literature.
Each line is one published result; not all experiments were run side by side. Values joined by “and” are separate records of one study, mostly repeats; a detail may differ. ± marks the error that the study gave.

`Cc1cc(C)n(CCN(CCN)CCCCCCNC(=O)[C@@H](N)Cc2c[nH]cn2)n1.[99Tc+].[C-]#[O+].[C-]#[O+].[C-]#[O+]` gave a tissue uptake of 0.07 ± 0.01 %IA/g (BALB/c nude mice, A549 xenograft, muscle; intravenous, 24 h).
For `N#C[C@@H]1CCCN1C(=O)CNC(=O)c1ccnc2ccc(OCCCN3CCN(C(=O)CCc4ccc5c(c4)CN4CCN(Cc6cc(CCC(=O)O)ccc6O)CC(=O)[O][Al-]([18F])([O]C(=O)C4)[O]5)CC3)cc12` (stereo partly shown), the tissue uptake was 0.47 ± 0.21 %ID/g (BALB/c nude mice, U-87 MG xenograft, spleen; 2 h).
The tissue uptake of `COc1ccc(Nc2nc(Nc3ccc(OCCOCCOCC[18F])cc3)ncc2Br)cc1` is reported as 2.97 ± 0.47 %ID/g (ICR mice, S180 tumour-bearing, tumor; intravenous, 370 kBq, 60 min).
`N#C[C@@H]1CCCN1C(=O)CNC(=O)c1ccnc2ccc(OCCCN3CCN(C(=O)CCc4ccc5c(c4)CN4CCN6CC(=O)[O][68Ga-]([O]C(=O)C4)([O]5)[O]c4ccc(CCC(=O)N5CCN(CCCOc7ccc8nccc(C(=O)NCC(=O)N9CCC[C@H]9C#N)c8c7)CC5)cc4C6)CC3)cc12` gave a tissue uptake of 163 ± 40.4 %ID/g (BALB/c nude mice, U-87 MG xenograft, gallbladder; 1 h, blocked 60 min, added: DOTA-FAPI-04 40 nmol co-injected).
The tissue uptake of `CCCC[C@H](NC(=O)COCCOCCNC(=O)CN1CCN(CC(=O)O)CCN(CC(=O)O)CC1)C(=O)N[C@H]1CC(=O)NCCCC[C@@H](C(N)=O)NC(=O)[C@H](Cc2c[nH]c3ccccc23)NC(=O)[C@H](CCCNC(=N)N)NC(=O)[C@@H](Cc2ccccc2)NC(=O)[C@H](Cc2c[nH]cn2)NC1=O` [fluorine-18 labelled] is reported as 6.96 ± 1.19 %ID/g (C57 mice, B16/F10 melanoma, kidneys; intravenous, 1 h, added: NDP-MSH 10 µg).
With `O=C([O-])CN1CCN(CC(=O)[O-])CCN(CC(=O)NC[C@H]2CC[C@H](C(=O)N[C@H](Cc3cnc4ccccc4c3)C(=O)NCCCC[C@H](NC(=O)N[C@@H](CCC(=O)O)C(=O)O)C(=O)O)CC2)CCN(CC(=O)[O-])CC1.[64Cu+2]` the tissue uptake was 3.44 %ID/g (ex vivo gamma counting; 22Rv1 tumour-bearing mice, bone; intravenous, 0.74 MBq, 6 h post-injection).
`COc1ccc2c(c1)C(C)(C)C(/C=C/C1=C(Oc3ccc(C(=O)NCCCCOc4cc(CN(Cc5ccccn5)Cc5ccccn5)cc(CN(Cc5ccccn5)Cc5ccccn5)c4)cc3)C(=C/C=C3/N(CCCCS(=O)(=O)[O-])c4ccc(OC)cc4C3(C)C)CCC1)=[N+]2CCCCS(=O)(=O)[O-].O=[N+]([O-])[O-].O=[N+]([O-])[O-].[99Tc+].[C-]#[O+].[C-]#[O+].[C-]#[O+].[Zn+2]` has a tissue uptake of 2.99 %ID/g and 2.79 %ID/g and 4.45 %ID/g and 6.89 %ID/g (BALB/c mice, healthy, large intestine and caecum; intravenous, 0.74 MBq, 12 h post-injection).
`CCCC[C@H](NC(=O)CCCCCCCNC(=O)CN1CCN(CC(=O)O)CCN(CC(=O)O)CC1)C(=O)N[C@H]1CC(=O)NCCCC[C@@H](C(N)=O)NC(=O)[C@H](Cc2c[nH]c3ccccc23)NC(=O)[C@H](CCCNC(=N)N)NC(=O)[C@@H](Cc2ccccc2)NC(=O)[C@H](Cc2c[nH]cn2)NC1=O` [fluorine-18 labelled] has a tissue uptake of 1.61 ± 0.54 %ID/g (C57 mice B16-F10 melanoma, stomach; intravenous, 0.37 MBq, 1 h).
`COc1ccc(Nc2nc(Nc3ccc(OCCOCC[18F])cc3)ncc2Br)cc1` has a tissue uptake of 3.52 ± 0.49 %ID/g (ICR mice, S180 tumour-bearing, liver; intravenous, 370 kBq, 5 min).
`CC(C)C[C@H](NC(=O)[C@@H](CCCCNC(=O)[C@@H](Cc1ccccc1)NC(=O)CCCCCCCNC(=O)CN1CCN(CC(=O)O)CCN(CC(=O)O)CCN(CC(=O)O)CC1)NC(=O)[C@H](Cc1ccc(O)cc1)NC(=O)[C@H](CO)NC(=O)[C@H](Cc1c[nH]c2ccccc12)NC(=O)[C@H](Cc1c[nH]cn1)NC(=O)[C@@H]1CCC(=O)N1)C(=O)N[C@@H](CCCNC(=N)N)C(=O)N1CCC[C@H]1C(=O)NCC(N)=O` [indium-111 labelled] has a tissue uptake of 0.31 ± 0.12 %ID/g (biodistribution; male athymic nude mice, DU-145 prostate cancer xenograft, liver; intravenous, 0.037 MBq, 4 h post-injection).
`CCCC[C@H](NC(=O)CNC(=O)CNC(=O)[C@H](CCCCNC(=O)[C@H](CC(N)=O)NC(=O)C(C)c1ccc(CC(C)C)cc1)NC(=O)CN1CCN(CC(=O)O)CCN(CC(=O)O)CCN(CC(=O)O)CC1)C(=O)N[C@H]1CC(=O)NCCCC[C@@H](C(N)=O)NC(=O)[C@H](Cc2c[nH]c3ccccc23)NC(=O)[C@H](CCCNC(=N)N)NC(=O)[C@@H](Cc2ccccc2)NC(=O)[C@H](Cc2c[nH]cn2)NC1=O` (stereo partly shown) [lutetium-177 labelled] has a tissue uptake of 0.88 ± 0.34 %ID/g (C57 mice, tumour-bearing, bone; 2 h).
`O=C(NCC1OC2CCC=CCCC2O1)c1ccc(COCCOCCOCC[18F])cc1` (stereo not shown) gave a tissue uptake of 2.2 ± 0.1 %ID/g (healthy female BALB/c nude mice, muscle; intravenous, 7.4 MBq per mouse, 30 min).
With `CCCC[C@H](NC(=O)CNC(=O)CNC(=O)[C@H](CCCCNC(=O)[C@H](CCN)NC(=O)C(C)c1ccc(CC(C)C)cc1)NC(=O)CN1CCN(CC(=O)O)CCN(CC(=O)O)CCN(CC(=O)O)CC1)C(=O)N[C@H]1CC(=O)NCCCC[C@@H](C(N)=O)NC(=O)[C@H](Cc2c[nH]c3ccccc23)NC(=O)[C@H](CCCNC(=N)N)NC(=O)[C@@H](Cc2ccccc2)NC(=O)[C@H](Cc2c[nH]cn2)NC1=O` (stereo partly shown) [lutetium-177 labelled] the tissue uptake was 65.6 ± 0.94 %ID/g (C57 mice, tumour-bearing, kidneys; 2 h).
`O=C(NCC1OC2CCC=CCCC2O1)c1ccc([18F])nc1` (stereo not shown) has a tissue uptake of 11.9 ± 4 %ID/g (healthy female BALB/c nude mice, liver; intravenous, 7.4 MBq per mouse, 5 min).
`N#C[C@@H]1CCCN1C(=O)CNC(=O)c1ccnc2ccc(OCCCN3CCN(C(=O)CCc4ccc(O)c(CN5CCN6CC(=O)[O][Al-]([18F])([O]C(=O)C5)[O]c5ccc(CCC(=O)N7CCN(CCCOc8ccc9nccc(C(=O)NCC(=O)N%10CCC[C@H]%10C#N)c9c8)CC7)cc5C6)c4)CC3)cc12` (stereo partly shown) gave a tissue uptake of 6 ± 1.29 %ID/g (BALB/c nude mice, U-87 MG xenograft, lung; 1 h).
`O=C(O)CCCOc1ccc([18F])cc1-c1cc(-c2ccccc2C(F)(F)F)n(-c2ccccc2)n1` has a tissue uptake of 0.08 ± 0.04 %ID/g (mice, bladder and urine; intravenous, 30 min).

Some of these lines once more:
`COc1ccc2c(c1)C(C)(C)C(/C=C/C1=C(Oc3ccc(C(=O)NCCCCOc4cc(CN(Cc5ccccn5)Cc5ccccn5)cc(CN(Cc5ccccn5)Cc5ccccn5)c4)cc3)C(=C/C=C3/N(CCCCS(=O)(=O)[O-])c4ccc(OC)cc4C3(C)C)CCC1)=[N+]2CCCCS(=O)(=O)[O-].O=[N+]([O-])[O-].O=[N+]([O-])[O-].[99Tc+].[C-]#[O+].[C-]#[O+].[C-]#[O+].[Zn+2]` has a tissue uptake of 2.99 %ID/g and 2.79 %ID/g and 4.45 %ID/g and 6.89 %ID/g (BALB/c mice, healthy, large intestine and caecum; intravenous, 0.74 MBq, 12 h post-injection).
